Experimental data of several laboratories.
Values joined by “and” are separate records of one study, mostly repeats; a detail may differ. Numbers after ± are the reported error.
Sequence of UniProt P16152 (whole entry, looked up): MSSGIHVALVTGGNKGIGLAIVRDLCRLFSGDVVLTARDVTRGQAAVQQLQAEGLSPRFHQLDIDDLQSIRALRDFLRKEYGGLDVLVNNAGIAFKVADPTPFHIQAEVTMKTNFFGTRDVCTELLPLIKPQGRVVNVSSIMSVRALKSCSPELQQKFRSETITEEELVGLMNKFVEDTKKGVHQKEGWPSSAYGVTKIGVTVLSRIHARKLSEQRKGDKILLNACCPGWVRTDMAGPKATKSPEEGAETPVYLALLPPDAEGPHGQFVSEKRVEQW

CCCCC1(CCCC)CN(c2ccccc2)c2cc(SC)c(OCC(=O)N[C@@H](C(=O)NCC(=O)O)c3ccccc3)cc2S(=O)(=O)C1  serum HDL-C (measured: HDL cholesterol; human, serum; 10 mg once daily, day 9): 49.8 mg/dL
CC[C@H](C)[C@@H]1NC(=O)[C@@H]2CCCN2C(=O)[C@H](CC(C)C)NC(=O)[C@H](CC(C)C)NC(=O)CNC(=O)[C@@H](NC(=O)[C@@H](NC(=O)[C@H](CC(=O)O)NC(=O)CNC(=O)[C@@H](NC(=O)[C@H](C)NC(=O)CNC(=O)[C@H](CCCCN)NC(=O)[C@H](CC(C)C)NC(=O)[C@H](CC(C)C)NC(=O)[C@H](CCCCN)NC(=O)CNC(=O)[C@@H](NC(=O)[C@@H](N)CC(C)C)C(C)C)C(C)C)C(C)C)CSSC[C@@H](C(=O)O)NC1=O  log2 fold change (RNA-seq, measured: Lypd6; mouse, traumatic brain injury model, frontal cortex and hippocampus; dose not given; baseline: TBI alone): 0.666
CN1CCN(S(=O)(=O)c2cc([N+](=O)[O-])ccc2N(CCOS(C)(=O)=O)CCOS(C)(=O)=O)CC1  EFS delay (T-C) (NSG mice, sample CB PDX; intraperitoneal, 25 mg/kg weekly x3; baseline: vehicle): > 375 days
CC[C@H](C)[C@@H]([C@@H](CC(=O)N1CCC[C@H]1[C@H](OC)[C@@H](C)C(=O)N[C@H](C)[C@@H](O)c1ccccc1)OC)N(C)C(=O)[C@@H](NC(=O)[C@H](C(C)C)N(C)C(=O)OCc1ccc(NC(=O)[C@H](C)NC(=O)[C@@H](NC(=O)CCCCCN2C(=O)CC(SC[C@H](NC(=O)[C@H](CC(=O)O)NC(=O)[C@H](CCCNC(=N)N)NC(=O)[C@H](CC(=O)O)NC(=O)CCCCn3cc(CCCC(=O)Nc4nnc(S(N)(=O)=O)s4)nn3)C(=O)O)C2=O)C(C)C)cc1)C(C)C (stereo partly shown)  maximal tolerated dose (BALB/c nu/nu mice, SK-RC-52 xenograft; intravenous): 250 nmol/kg
CC[C@@H](C)[C@@H](NC(=O)[C@@H](Cc1ccc(O)cc1)NC(=O)[C@H]1CCCN1C(=O)[C@@H](CCCNC(=N)N)NC(=O)[C@H](N)Cc1c[nH]cn1)C(=O)N[C@H](C)C(=O)N[C@H](Cc1c[nH]cn1)C(=O)N[C@H](CCCNC(=N)N)C(=O)N[C@H](CCCCNC(=O)c1cccc(S(=O)(=O)F)c1)C(=O)N[C@H](Cc1ccc(O)cc1)C(=O)N[C@H](CO)C(=O)N[C@H](Cc1ccccc1)C(N)=O  IFN-γ+ CD8+ T cells (ex vivo flow cytometry; MC-38 tumour-bearing mice, spleen; 3.9 mg/kg; baseline: CD8+ T cells): 7.71% and 6.61% and 6.36% and 9.58%
C[C@H]1O[C@@H](O[C@H]2CC[C@@]3(C)[C@@H](CC[C@]4(C)[C@@H]3C=C[C@]35OC[C@@]6(CCC(C)(C)C[C@H]63)[C@@H](O)C[C@]54C)[C@]2(C)CO)[C@H](O)[C@@H](O[C@@H]2O[C@H](CO)[C@@H](O)[C@H](O)[C@H]2O)[C@H]1O  steatosis area (H&E staining; hepatic SIRT1 knockdown mice, no ethanol, liver; dose not given, AAV8-TBG-shRNA, high dose): 11.5% and 10.7% and 9.62% and 12.7% and 10.9%
NNc1ccccc1  normalised absorbance (hydrazine ligation kinetics, absorbance; concentration not given, 45 s, together with: 2-formylphenylboronic acid): 0.914
FC(F)(F)c1ccc2c(c1)[C@@H]1CNC[C@H]2C1  ethanol preference (intermittent two-bottle choice; Wistar rat, 20% ethanol drinking; subcutaneous, 1 mg/kg, 24 h; baseline: ethanol over total fluid intake): 46 ± 4%
COc1cc(Nc2ncc(F)c(Nc3ccc4c(n3)NC(=O)C(C)(C)O4)n2)cc(OC)c1OC  IC50 (Ryanodine receptor 3 (Rattus norvegicus, UniProt A0ABK0LPH6)): > 10000 nM
CC[C@H](C)[C@H](NC(=O)[C@H](Cc1ccccc1)NC(=O)[C@H](CCC(=O)O)NC(=O)[C@H](CCCNC(=N)N)NC(=O)[C@H](C)NC(=O)[C@H](C)NC(=O)[C@H](CCC(N)=O)NC(=O)[C@H](CCC(=O)O)NC(=O)[C@H](CCC(=O)O)NC(=O)[C@H](CC(C)C)NC(=O)[C@H](Cc1ccc(O)cc1)NC(=O)[C@H](CO)NC(=O)[C@H](CO)NC(=O)[C@@H](NC(=O)[C@H](CC(=O)O)NC(=O)[C@H](CO)NC(=O)[C@@H](NC(=O)[C@H](Cc1ccccc1)NC(=O)[C@@H](NC(=O)CNC(=O)[C@H](CCC(=O)O)NC(=O)[C@H](C)NC(=O)CCc1cnc[nH]1)[C@@H](C)O)[C@@H](C)O)C(C)C)C(=O)N[C@@H](C)C(=O)N[C@@H](Cc1c[nH]c2ccccc12)C(=O)N[C@@H](CC(C)C)C(=O)N[C@H](C(=O)N[C@@H](CCCNC(=N)N)C(=O)NCC(=O)N[C@@H](CCCNC(=N)N)C(=O)N[C@@H](CCCCNC(=O)COCCOCCNC(=O)COCCOCCNC(=O)CC[C@H](NC(=O)CCCCCCCCCCCCCCCCC(=O)O)C(=O)O)C(=O)NCC(=O)NCC(=O)N[C@@H](CO)C(=O)N[C@@H](CCCCNc1c(NCCCCCN(O)C(=O)CCC(=O)NCCCCCN(O)C(=O)CCC(=O)NCCCCCN(O)C(C)=O)c(=O)c1=O)C(=O)NCC(=O)NCC(=O)N[C@@H](CO)C(=O)N[C@@H](CCCCNc1c(NCCCCCN(O)C(=O)CCC(=O)NCCCCCN(O)C(=O)CCC(=O)NCCCCCN(O)C(C)=O)c(=O)c1=O)C(=O)O)C(C)C  EC50 (Glucagon-like peptide 1 receptor (GLP1R, Homo sapiens, UniProt P43220); cAMP reporter gene, agonist, CRE luciferase; BHK; without Zr, 1% HSA): 0.16 nM
C[C@H]1CN(c2n[nH]c3nc(N[C@H]4CC[C@H](NS(=O)(=O)CCC(F)(F)F)CC4)ncc23)CCO1  relative abundance (Carbonyl reductase [NADPH] 1 (CBR1, Homo sapiens, UniProt P16152); inhibitor, Kinobeads competition profiling; 20 µM; baseline: vehicle): 1.14
CCCCC1CNC2CCc3ccc(OC)cc3C12.Cl (racemic)  trials to criterion (memory retention, avoidance, foot shock, T-maze; SAMP8 mice; intracerebroventricular, 0.01 µg, 7 days; baseline: vehicle): decreased
[Cl][Ru-]([Cl])([Cl])[Cl].[Na+].c1ccc2[nH]ncc2c1.c1ccc2[nH]ncc2c1  duration of response (CT, RECIST 1.1; human; 420 mg/m2): 19 weeks

Some of these lines once more:
CCCCC1CNC2CCc3ccc(OC)cc3C12.Cl (racemic)  trials to criterion (memory retention, avoidance, foot shock, T-maze; SAMP8 mice; intracerebroventricular, 0.01 µg, 7 days; baseline: vehicle): decreased
[Cl][Ru-]([Cl])([Cl])[Cl].[Na+].c1ccc2[nH]ncc2c1.c1ccc2[nH]ncc2c1  duration of response (CT, RECIST 1.1; human; 420 mg/m2): 19 weeks
